Measurements from different studies.
Numbered parts are unrelated; each lists some results of a single study.

Block 1 — method: protein binding microarray; molecule type: double-stranded DNA, one strand shown; sample: in vitro; concentration: not given; relative to: not given; direction: higher = stronger binding
Target: Histone acetyltransferase KAT6A, winged helix 2, GST fusion (KAT6A, Homo sapiens, UniProt Q92794, residues 85-181)
Setting: 8-mer, flanks averaged, mean of 2 arrays, mostly near background
Construct (chain): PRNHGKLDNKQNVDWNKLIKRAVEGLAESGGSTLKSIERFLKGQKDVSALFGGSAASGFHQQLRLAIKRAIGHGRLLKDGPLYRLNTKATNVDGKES
| Oligonucleotide | E-score |
| --- | --- |
| ATAGCAGG | 0.0979 |
| TCAGCGGA | 0.154 |
| CGAGCGCG | 0.181 |
| GCAAACCA | 0.226 |
| TACCCCTA | -0.242 |
| AACGTTGA | -0.129 |

Block 2 — method: universal PBM; molecule type: double-stranded DNA, one strand shown; sample: in vitro; concentration: not given; direction: higher = stronger binding
Target: Sal-like protein 4, full length isoform B (SALL4, Homo sapiens, UniProt Q9UJQ4-2, residues 1-616)
Setting: 8-mer, flanks averaged, mean of replicates
Target sequence (chain): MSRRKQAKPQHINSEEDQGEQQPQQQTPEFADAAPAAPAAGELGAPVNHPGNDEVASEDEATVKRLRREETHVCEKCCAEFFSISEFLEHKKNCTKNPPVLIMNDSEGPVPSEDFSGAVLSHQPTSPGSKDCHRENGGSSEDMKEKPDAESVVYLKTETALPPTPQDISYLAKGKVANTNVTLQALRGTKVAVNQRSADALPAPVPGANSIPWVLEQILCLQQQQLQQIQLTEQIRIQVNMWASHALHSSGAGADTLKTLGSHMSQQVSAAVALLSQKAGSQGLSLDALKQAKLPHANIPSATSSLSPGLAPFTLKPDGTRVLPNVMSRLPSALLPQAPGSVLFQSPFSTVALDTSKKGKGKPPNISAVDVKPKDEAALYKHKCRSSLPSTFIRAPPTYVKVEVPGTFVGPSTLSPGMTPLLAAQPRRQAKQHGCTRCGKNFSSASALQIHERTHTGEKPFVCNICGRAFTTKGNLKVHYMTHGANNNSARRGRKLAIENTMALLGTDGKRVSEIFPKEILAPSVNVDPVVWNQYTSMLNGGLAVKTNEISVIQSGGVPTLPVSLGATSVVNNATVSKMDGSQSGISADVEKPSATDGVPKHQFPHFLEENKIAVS
| Oligonucleotide | E-score |
| --- | --- |
| ACCGCGCT | -0.18 |
| ATCAAGGG | 0.0597 |
| GGCCTCAA | -0.167 |
| GAAGATGC | -0.142 |

Block 3 — method: RNA Bind-n-Seq; molecule type: RNA; sample: in vitro; concentration: 365 nM; relative to: no-protein control; direction: higher = stronger binding
Target: RNA binding protein fox-1 homolog 2, RRM domain, GST-SBP tag (RBFOX2, Homo sapiens, UniProt O43251-10, residues 100-194)
Setting: natural RNA segment, single round, ends assumed
Residues (chain): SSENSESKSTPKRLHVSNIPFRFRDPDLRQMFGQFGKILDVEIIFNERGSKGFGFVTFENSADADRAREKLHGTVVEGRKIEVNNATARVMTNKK
| Oligonucleotide | RBNS enrichment (R) |
| --- | --- |
| GGGAGUUCUACAGUCCGACGAUCAUUUGGGGUGACAUGCUGUCAAAAGGCUAAUAUAGACUGGGUGUGGUAGUGCACACCUUGAAUCUGAGCACUAGGAAAACAGGCAGGUGGAUUUUUGAGUUCAAGACCAGUGGAAUUCUCGGGUGCCAA | 0.492 |
| GGGAGUUCUACAGUCCGACGAUCGAAGGUAUGGAGGCAUGGUUUGUUUCGGUUCAUCUCCAGGAUGUAUACAGUGAAGACAAACCAAAUACUUUUCACCAUUGAACUAUCUGUACAUUAUCUUUGGUAACACUUGGAAUUCUCGGGUGCCAA | 0.312 |
| GGGAGUUCUACAGUCCGACGAUCGAUAAGCUCUGCUGGAUCCAAGGGAUCCAGGCUAAGGGCGUUCAGUCUGCUGCAAACCAGUCUGGCCAGCACAGCAACCGCCCAUUGAGGACUUUCUUAAAGCUACUGGGUGGAAUUCUCGGGUGCCAA | 0.242 |

Single results of other studies
| Molecule | target | assay | test system | conditions | scale | measurement | value |
| --- | --- | --- | --- | --- | --- | --- | --- |
| PhoQ, residues 284 288 289 292 302 303 TLMATV | PhoP, residues 12 14 15 18 19 LHTVM (Escherichia coli, UniProt P23836) | Sort-seq, refers to: YFP reporter | E. coli | PhoQ-PhoP variant library, added: 10 µM Mg2+ | relative to: high Mg2+ state, higher = stronger signaling | fold induction | 1.75 |

Excerpt of the above (block 2):
| Oligonucleotide | E-score |
| --- | --- |
| ACCGCGCT | -0.18 |
| ATCAAGGG | 0.0597 |
